Published values collected from several papers.
A part holds a random share of what one study measured.
UniProt O00750, sequence (whole entry, looked up): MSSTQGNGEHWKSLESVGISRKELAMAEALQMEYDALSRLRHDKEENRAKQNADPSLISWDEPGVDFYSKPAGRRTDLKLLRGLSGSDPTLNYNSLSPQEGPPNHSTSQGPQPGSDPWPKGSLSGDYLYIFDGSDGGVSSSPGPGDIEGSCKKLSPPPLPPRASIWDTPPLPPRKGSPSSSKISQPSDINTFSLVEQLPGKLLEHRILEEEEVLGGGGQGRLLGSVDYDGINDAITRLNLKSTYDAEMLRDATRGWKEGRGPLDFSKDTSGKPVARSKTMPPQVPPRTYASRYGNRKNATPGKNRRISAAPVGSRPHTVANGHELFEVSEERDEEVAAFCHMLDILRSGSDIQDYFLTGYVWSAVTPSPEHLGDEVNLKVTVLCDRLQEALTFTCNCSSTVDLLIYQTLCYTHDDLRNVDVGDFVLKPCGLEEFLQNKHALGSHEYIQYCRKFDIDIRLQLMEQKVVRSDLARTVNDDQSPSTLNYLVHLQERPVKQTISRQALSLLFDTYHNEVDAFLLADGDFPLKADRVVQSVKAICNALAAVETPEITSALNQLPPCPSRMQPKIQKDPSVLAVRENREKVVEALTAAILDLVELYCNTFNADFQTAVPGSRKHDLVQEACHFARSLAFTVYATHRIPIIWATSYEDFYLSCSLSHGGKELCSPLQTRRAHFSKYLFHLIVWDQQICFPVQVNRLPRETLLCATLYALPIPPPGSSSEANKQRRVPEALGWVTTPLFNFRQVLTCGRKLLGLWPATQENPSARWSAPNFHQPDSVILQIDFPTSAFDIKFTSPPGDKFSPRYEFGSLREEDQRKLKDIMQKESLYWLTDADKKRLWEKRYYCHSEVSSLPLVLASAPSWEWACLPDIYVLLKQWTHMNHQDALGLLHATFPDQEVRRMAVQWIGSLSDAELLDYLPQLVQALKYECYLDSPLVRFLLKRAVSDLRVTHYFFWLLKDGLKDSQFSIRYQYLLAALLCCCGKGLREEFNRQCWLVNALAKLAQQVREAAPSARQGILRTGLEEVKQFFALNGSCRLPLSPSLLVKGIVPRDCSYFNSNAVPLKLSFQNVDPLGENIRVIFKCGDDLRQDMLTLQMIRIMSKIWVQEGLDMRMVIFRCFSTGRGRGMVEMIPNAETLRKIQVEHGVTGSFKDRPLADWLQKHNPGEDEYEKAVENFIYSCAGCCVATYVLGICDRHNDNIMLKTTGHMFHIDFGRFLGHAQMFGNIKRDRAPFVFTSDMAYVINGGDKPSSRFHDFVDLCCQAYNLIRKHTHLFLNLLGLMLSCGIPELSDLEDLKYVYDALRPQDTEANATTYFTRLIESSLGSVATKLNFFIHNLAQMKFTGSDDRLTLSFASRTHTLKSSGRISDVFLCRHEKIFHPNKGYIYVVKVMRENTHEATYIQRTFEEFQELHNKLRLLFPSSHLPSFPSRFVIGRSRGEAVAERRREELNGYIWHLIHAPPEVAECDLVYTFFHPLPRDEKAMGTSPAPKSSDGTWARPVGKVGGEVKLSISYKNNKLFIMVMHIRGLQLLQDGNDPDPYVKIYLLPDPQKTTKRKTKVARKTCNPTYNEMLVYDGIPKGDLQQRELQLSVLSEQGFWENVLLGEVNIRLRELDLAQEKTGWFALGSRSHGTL
UniProt O60331, sequence (whole entry, looked up): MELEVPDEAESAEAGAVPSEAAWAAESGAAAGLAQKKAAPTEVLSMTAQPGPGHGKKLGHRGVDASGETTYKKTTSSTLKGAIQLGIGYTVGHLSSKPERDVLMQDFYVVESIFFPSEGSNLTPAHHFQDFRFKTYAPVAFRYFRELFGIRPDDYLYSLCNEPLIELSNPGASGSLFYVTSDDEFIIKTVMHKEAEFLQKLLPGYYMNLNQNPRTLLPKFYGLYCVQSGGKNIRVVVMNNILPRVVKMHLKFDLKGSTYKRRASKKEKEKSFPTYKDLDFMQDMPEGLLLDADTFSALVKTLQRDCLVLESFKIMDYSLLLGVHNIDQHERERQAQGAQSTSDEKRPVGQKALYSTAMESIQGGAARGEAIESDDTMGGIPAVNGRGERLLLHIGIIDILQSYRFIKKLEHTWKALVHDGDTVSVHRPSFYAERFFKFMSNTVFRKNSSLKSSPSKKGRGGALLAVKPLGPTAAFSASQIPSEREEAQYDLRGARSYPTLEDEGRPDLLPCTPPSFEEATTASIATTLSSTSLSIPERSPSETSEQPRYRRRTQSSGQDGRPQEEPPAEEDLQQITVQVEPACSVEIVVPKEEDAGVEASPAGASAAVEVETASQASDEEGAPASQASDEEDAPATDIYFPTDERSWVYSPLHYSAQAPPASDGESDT
UniProt Q13043, sequence (whole entry, looked up): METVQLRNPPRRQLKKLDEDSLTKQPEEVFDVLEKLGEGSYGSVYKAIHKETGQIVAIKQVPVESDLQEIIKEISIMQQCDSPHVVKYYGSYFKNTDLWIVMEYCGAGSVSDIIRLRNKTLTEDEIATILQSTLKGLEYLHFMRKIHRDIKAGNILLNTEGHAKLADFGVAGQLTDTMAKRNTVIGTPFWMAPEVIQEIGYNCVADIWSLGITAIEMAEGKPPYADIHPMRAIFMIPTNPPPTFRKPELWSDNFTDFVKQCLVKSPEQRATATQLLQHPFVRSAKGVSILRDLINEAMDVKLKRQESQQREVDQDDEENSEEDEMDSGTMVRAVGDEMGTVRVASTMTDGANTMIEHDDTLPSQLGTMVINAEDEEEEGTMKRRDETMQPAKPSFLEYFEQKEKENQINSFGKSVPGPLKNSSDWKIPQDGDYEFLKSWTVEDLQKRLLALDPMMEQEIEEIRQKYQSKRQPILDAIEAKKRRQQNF
UniProt Q15349, sequence (whole entry, looked up): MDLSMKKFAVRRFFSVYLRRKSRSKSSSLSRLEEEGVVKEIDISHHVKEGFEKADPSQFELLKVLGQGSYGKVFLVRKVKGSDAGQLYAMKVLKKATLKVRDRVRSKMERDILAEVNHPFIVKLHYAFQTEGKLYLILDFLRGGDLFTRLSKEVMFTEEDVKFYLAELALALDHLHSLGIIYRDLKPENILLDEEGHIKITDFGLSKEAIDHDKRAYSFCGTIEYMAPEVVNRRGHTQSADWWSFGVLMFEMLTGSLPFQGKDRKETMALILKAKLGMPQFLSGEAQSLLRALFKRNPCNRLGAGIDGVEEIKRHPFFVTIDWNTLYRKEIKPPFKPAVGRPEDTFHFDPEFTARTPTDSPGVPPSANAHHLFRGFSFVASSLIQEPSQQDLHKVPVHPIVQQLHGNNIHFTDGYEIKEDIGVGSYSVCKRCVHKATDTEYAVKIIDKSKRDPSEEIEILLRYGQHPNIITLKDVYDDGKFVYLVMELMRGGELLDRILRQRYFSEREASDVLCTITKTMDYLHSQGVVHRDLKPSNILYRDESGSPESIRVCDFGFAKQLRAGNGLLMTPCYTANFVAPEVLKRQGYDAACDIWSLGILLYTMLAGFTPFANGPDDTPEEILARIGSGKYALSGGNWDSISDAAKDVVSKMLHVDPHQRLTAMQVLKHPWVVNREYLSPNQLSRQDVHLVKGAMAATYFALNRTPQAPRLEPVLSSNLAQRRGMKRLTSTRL
UniProt Q8IYT8, sequence (whole entry, looked up): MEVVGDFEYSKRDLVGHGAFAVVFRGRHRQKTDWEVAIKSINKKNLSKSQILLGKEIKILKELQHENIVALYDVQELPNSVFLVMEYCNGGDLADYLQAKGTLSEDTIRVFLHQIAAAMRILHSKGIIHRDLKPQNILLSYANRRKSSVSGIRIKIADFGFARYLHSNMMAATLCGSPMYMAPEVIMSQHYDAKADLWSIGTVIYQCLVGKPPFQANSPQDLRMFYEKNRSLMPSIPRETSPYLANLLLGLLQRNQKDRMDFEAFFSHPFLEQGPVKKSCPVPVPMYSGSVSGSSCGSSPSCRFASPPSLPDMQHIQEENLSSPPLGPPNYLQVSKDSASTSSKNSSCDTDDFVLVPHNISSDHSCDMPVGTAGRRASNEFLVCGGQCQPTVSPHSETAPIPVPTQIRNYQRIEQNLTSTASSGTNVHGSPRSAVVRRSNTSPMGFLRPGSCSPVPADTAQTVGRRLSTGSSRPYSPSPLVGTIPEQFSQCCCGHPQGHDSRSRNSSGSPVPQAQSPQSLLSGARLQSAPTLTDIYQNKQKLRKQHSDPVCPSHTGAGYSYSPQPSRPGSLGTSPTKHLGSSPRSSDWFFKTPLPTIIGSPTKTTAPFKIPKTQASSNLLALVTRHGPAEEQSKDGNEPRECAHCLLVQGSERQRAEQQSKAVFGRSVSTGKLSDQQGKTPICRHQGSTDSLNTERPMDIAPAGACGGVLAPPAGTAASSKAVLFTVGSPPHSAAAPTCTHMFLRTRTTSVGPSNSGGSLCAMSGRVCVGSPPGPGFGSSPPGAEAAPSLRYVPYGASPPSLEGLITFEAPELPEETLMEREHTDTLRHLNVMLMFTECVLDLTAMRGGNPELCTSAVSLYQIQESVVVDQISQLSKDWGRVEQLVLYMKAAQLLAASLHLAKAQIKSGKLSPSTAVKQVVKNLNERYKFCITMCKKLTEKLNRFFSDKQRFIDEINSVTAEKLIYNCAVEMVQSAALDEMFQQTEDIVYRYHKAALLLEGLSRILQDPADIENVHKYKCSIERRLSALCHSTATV
UniProt P49759, sequence (whole entry, looked up): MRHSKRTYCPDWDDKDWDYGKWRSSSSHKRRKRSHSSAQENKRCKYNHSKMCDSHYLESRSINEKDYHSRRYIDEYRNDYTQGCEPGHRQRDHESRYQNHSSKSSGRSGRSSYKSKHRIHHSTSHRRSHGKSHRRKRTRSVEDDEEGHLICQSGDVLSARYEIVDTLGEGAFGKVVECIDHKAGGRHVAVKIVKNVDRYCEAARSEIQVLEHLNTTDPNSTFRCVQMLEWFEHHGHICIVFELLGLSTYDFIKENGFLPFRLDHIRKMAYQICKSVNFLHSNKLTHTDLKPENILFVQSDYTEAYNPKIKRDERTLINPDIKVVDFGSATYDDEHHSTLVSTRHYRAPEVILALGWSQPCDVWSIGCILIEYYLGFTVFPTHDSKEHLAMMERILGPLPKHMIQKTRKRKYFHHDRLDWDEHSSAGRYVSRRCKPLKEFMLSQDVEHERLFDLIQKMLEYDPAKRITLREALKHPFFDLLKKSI

Series 1
Target: Serine/threonine-protein kinase Nek11 (NEK11, Homo sapiens, UniProt Q8NG66)
Effect on: enzyme activity
Mode: inhibitor
Concentration: 0.5 µM
Relative to: control
Construct (Q8NG66 1-645): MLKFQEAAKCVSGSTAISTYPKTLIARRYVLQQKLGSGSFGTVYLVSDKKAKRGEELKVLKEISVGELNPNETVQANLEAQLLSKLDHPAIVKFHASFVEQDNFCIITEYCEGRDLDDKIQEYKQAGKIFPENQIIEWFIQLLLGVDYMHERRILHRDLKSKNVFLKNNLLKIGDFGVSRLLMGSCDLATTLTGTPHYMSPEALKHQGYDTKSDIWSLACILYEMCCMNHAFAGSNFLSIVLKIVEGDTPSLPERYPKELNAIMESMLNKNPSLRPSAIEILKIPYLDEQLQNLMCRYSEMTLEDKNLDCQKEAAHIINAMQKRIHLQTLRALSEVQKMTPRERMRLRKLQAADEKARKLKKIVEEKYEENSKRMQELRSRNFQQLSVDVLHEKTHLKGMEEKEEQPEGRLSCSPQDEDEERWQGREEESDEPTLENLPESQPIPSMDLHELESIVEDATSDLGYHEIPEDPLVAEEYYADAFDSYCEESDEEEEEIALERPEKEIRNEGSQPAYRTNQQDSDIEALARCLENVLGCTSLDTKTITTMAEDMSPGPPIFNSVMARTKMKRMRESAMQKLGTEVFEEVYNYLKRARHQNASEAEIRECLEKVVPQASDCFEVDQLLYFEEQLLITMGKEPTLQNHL
Compound | remaining activity
Cn1c2ccccc2c2c3c(c4c5ccccc5n(CCC#N)c4c21)CNC3=O | 110%
CN(C)c1ccc(C=C2C(=O)Nc3ccccc32)cc1 | 96.4%
Nc1ncnc2n[nH]c(Nc3ccc(F)cc3)c12 | 102%
CCOC(=O)c1c(C)[nH]c(/C=C2\C(=O)Nc3ccccc32)c1C | 96.6%
N#CC(C#N)=C(N)/C(C#N)=C/c1ccc(O)cc1 | 97.2%
COc1cc2nccc(Oc3ccc(NC(=S)NC(=O)c4ccccc4C)cc3)c2cc1OC | 96.7%
O=c1c2ccccc2[nH]c(=S)n1CCN1CCC(=C(c2ccc(F)cc2)c2ccc(F)cc2)CC1 | 94%
CC(C)[C@H](CO)Nc1nc(Nc2cc(N)cc(Cl)c2)c2ncn(C(C)C)c2n1 | 84.2%
COc1ccc(OC)c2c(=S)c3ccccc3[nH]c12 | 130%
Cc1ccc(NC(=O)c2ccc(CN3CCN(C)CC3)cc2)cc1Nc1nc(-c2cccnc2)cs1 | 95.1%
NCCNc1ncc(C(N)=O)c(Nc2cccc(C(F)(F)F)c2)n1 | 103%
Cc1nc(-c2ccccc2)c(-c2ccncc2)o1 | 76.7%
Cc1cccc(-c2[nH]c(C(C)(C)C)nc2-c2ccc3c(c2)OCO3)n1 | 90.3%
COc1ccc(C(=O)Nc2sc3c(c2C(N)=O)CCCC3)cc1OC | 102%
O=C(O)c1ccc2c3c1cccc3c(=O)n1c3ccccc3nc21 | 83%

Series 2
Organism: Sarcocystis neurona
Effect on: parasite growth
Concentration: 10 µM
Time: 96 h
Notes: second screen
Relative to: untreated
Structure (SMILES) | log2 fold change
CC(C)NCC(O)c1ccc(NS(C)(=O)=O)cc1 (stereo not drawn) | 0.07
CC(c1cc2ccccc2s1)N(O)C(N)=O (stereo not drawn) | 0.73
Clc1ccc2c(c1)C(N1CCNCC1)=Nc1ccccc1O2 | 0.22
Cc1cnc(C(=O)NCCc2ccc(S(=O)(=O)NC(=O)NC3CCCCC3)cc2)cn1 | 0.0657
CCC1(c2ccccc2)C(=O)NCNC1=O | 0.36
CC(C)NCC(O)COc1ccc(CC(N)=O)cc1 (stereo not drawn) | 0.04
CC(C)n1c(/C=C/C(O)CC(O)CC(=O)O)c(-c2ccc(F)cc2)c2ccccc21 (stereo not drawn) | 0.49
C#C[C@]1(O)CC[C@H]2[C@@H]3CCc4cc(O)ccc4[C@H]3CC[C@@]21C | 0.83

Series 3
Structure (SMILES): Cc1noc([C@H]2C[C@@H](c3ccc(C(F)(F)F)cc3)CN(C(=O)N3CCS(=O)(=O)C3)C2)n1
Effect on: cell-free assay
Method: competition with immobilised ligand
Concentration: 1 µM
target | remaining binding
STK4 (Homo sapiens, UniProt Q13043) | 100%
PIP5K1C (Homo sapiens, UniProt O60331) | 100%
Ribosomal protein S6 kinase alpha-2, C-terminal kinase domain (RPS6KA2, Homo sapiens, UniProt Q15349) | 92%
ULK2 (Homo sapiens, UniProt Q8IYT8) | 100%
PIK3C2B (Homo sapiens, UniProt O00750) | 66%
CLK1 (Homo sapiens, UniProt P49759) | 100%

Series 4
Host: human
Matrix: microsomes or S9
Concentration: 2 µM
Time: 0.5 h
SMILES | remaining compound
NCCO[C@H]1C[C@@H](O)C12CCN(CC(c1ccccc1)c1ccccc1)CC2 | 61.7%
CCn1nc(N2CCCC(NC(=O)c3cn[nH]c3)C2)ccc1=O (stereo not drawn) | 87.5%
Cc1nn(-c2n[nH]c(C)c2Br)c(C)c1C | 59.3%
COCCOCC(OC(=O)c1ccc(NC(N)=O)cc1)C(C)(C)C (stereo not drawn) | 44.4%
O=C(CCc1ccc(C(F)(F)F)cc1)N1C2C=CCC1CC2 (stereo not drawn) | 13.9%
Cc1cc(C(C)(C)C)cc(C)c1CS(=O)(=O)CCCO | 64.3%
C/C(=C/c1cnc2ccsc2c1)c1cnccn1 | 16.6%

For quick reference, copied from above (series 1):
Compound | remaining activity
Nc1ncnc2n[nH]c(Nc3ccc(F)cc3)c12 | 102%
CCOC(=O)c1c(C)[nH]c(/C=C2\C(=O)Nc3ccccc32)c1C | 96.6%
N#CC(C#N)=C(N)/C(C#N)=C/c1ccc(O)cc1 | 97.2%
COc1cc2nccc(Oc3ccc(NC(=S)NC(=O)c4ccccc4C)cc3)c2cc1OC | 96.7%
O=c1c2ccccc2[nH]c(=S)n1CCN1CCC(=C(c2ccc(F)cc2)c2ccc(F)cc2)CC1 | 94%
